Experimental data collected from several papers.
Numbered parts are unrelated; each lists some results of a single study. Changes are numbered by the printed parent chain.

Block 1
Target: TAR DNA-binding protein 43, full length, His tag (TARDBP, Homo sapiens, UniProt Q13148, residues 1-414)
Technique: RNA Bind-n-Seq
Molecule type: RNA
Matrix: in vitro
Concentration: 20 nM
Notes: 6-mer, flanks averaged, single round
Together with: 150 mM LiCl
Relative to: input library
Reading: higher = stronger binding
Strand	6-mer enrichment (R)
UUAGGC	0.937
GCAUGU	1.18
CAUAUC	0.853
AAUCAA	0.816
UUGAAC	0.927
CGAAUG	1
AACGGU	0.864
GCCGCC	1.03

Block 2
Target: RNA binding protein fox-1 homolog 2, RRM domain, GST-SBP tag (RBFOX2, Homo sapiens, UniProt O43251-10, residues 100-194)
Technique: RNA Bind-n-Seq
Molecule type: RNA
Matrix: in vitro
Concentration: 365 nM
Notes: natural RNA segment, single round, ends assumed
Relative to: no-protein control
Reading: higher = stronger binding
All sequences stand within: GGGAGUUCUACAGUCCGACGAUC … UGGAAUUCUCGGGUGCCAA
Target sequence (chain): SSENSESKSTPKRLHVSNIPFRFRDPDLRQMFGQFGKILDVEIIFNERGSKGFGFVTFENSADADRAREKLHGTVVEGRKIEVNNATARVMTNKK
Strand	RBNS enrichment (R)
AAUAGGAUAAUAUACUUCCAAUGCCCUCAAGGCUGUGACCUUACAGCCAUUUUACAUAGCACAUCAUUCCUCCUAUAGGGAUGAACUUUUUCCUGGCACGAAAAGUAGCC	0.589
UUUUCUCUGCCACGGCAGCGCAAUGCAAAGAGCAGACAUGGCCUCUUGCUUCUCUUCACAGCCAUAGGAUAAUGAAUACUCAGGCCUGUUUGUUAAAAUGCUAUUUUUAA	0.36
CAUGACUUUUAAGUAUUUUUUUAUAAACAGCUCAAUAUAAAACAUAGACAGUGUUUGAUUAUUUUCCUUGUGUAAGUUUGAUUUAAAACGUUGGAAAUGUGUGCUUUUUA	0.403
GUGUCCUACUCCAUUUACUGGUUACAAGGUGAUGUCAACAAGAGAAGCUAUCACAACACCAGGGCUGUGCACACGUGCACACACAUGUAUGCACAAGCACACAGAUGUAU	0.349
CAGGAGCUCUCUGGAGCCCAUCUAGGAAGCUAGAGUGUGUGGCCCGCCAGGAGCUCAGGAAGGAUACAGCCACUGUCGCAGGGGAAAGUGUUUGCUUCCCGUGGAGCCAA	0.443
CUGCGGCUGUGGCAGCCUCCAUCUCCAGCAAGUCUCCUGGCCUCUCCUCCUCAUCCUCUUCAUCCUCAUCCUCCUCCUCCUCCACUUGCAGCGAGACGGCAGCACAGACC	1.22
AAAAGUCAGGUACUCUGUUUUGUAAAAGUACUUUUAAAUUGCCUCAGUGAUACAGUAUAAAGAUAAACAGAAAUGCUGAGAUACGCUUAGCACUUGAGUUGUACAACAGA	0.301
CAUCUUGGCUGCAAUUCUGGACUCCCUACAGCAAAGGGAGAGUUGAGAUUCAAGUCCCACCCGGCUCUUUUGGAUGAACCGCUGAGAGCCUCAGGACUGUUUUUGGGGGG	0.861

Single results of other studies
P1: PafA, mature enzyme, eGFP fusion (Elizabethkingia meningoseptica, UniProt Q9KJX5); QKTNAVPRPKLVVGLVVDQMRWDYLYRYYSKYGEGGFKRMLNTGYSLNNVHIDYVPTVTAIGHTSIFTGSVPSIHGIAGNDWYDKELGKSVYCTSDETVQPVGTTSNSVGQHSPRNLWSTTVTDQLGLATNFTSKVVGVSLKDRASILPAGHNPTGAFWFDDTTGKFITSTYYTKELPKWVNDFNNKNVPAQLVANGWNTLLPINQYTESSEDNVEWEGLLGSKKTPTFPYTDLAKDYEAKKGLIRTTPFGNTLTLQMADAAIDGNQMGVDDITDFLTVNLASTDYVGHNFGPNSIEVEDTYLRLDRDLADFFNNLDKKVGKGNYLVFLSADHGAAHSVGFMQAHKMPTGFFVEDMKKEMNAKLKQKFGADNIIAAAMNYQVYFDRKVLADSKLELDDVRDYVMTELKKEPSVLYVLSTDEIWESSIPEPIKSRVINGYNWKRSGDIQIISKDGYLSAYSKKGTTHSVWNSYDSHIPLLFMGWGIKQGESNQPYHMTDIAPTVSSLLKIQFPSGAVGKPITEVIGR
Substance	tested on	test	test system	setting	scale	endpoint	result
NDUFA8 (Homo sapiens, UniProt P51970)	NDUFA13 (Homo sapiens, UniProt Q9P0J0)	cross-linking MS	cell fractions	together with: DSSO		cross-linked residues	T9 to K105
P1 S451V	tungstate, free oxyanion	microfluidic competitive inhibition	in vitro, cell-free expressed	not given, derived from inhibition constants, unchanged parent 2230 nM	lower = stronger binding	oxyanion analog dissociation constant	2.32 µM
SF3A1 (Homo sapiens, UniProt Q15459)	PRPF31 (Homo sapiens, UniProt Q8WWY3)	cross-linking MS	cell fractions	together with: DSSO		cross-linked residues	K449 to K341
SF3B1 (Homo sapiens, UniProt O75533)	GIMAP8 (Homo sapiens, UniProt Q8ND71)	cross-linking MS	cell fractions	together with: DSSO		cross-linked residues	K562 to K655
ADH5 (Homo sapiens, UniProt P11766)	ANK3 (Homo sapiens, UniProt Q12955)	cross-linking MS	cell fractions	together with: DMTMM		cross-linked residues	K373 to D2575

Some of these lines once more (block 2):
Strand	RBNS enrichment (R)
GUGUCCUACUCCAUUUACUGGUUACAAGGUGAUGUCAACAAGAGAAGCUAUCACAACACCAGGGCUGUGCACACGUGCACACACAUGUAUGCACAAGCACACAGAUGUAU	0.349
CAGGAGCUCUCUGGAGCCCAUCUAGGAAGCUAGAGUGUGUGGCCCGCCAGGAGCUCAGGAAGGAUACAGCCACUGUCGCAGGGGAAAGUGUUUGCUUCCCGUGGAGCCAA	0.443
CUGCGGCUGUGGCAGCCUCCAUCUCCAGCAAGUCUCCUGGCCUCUCCUCCUCAUCCUCUUCAUCCUCAUCCUCCUCCUCCUCCACUUGCAGCGAGACGGCAGCACAGACC	1.22
